Measurements gathered from unrelated publications.
Every numbered part comes from another study and shows a few of its results, in no order.
UniProt Q8N752, sequence (whole entry, looked up): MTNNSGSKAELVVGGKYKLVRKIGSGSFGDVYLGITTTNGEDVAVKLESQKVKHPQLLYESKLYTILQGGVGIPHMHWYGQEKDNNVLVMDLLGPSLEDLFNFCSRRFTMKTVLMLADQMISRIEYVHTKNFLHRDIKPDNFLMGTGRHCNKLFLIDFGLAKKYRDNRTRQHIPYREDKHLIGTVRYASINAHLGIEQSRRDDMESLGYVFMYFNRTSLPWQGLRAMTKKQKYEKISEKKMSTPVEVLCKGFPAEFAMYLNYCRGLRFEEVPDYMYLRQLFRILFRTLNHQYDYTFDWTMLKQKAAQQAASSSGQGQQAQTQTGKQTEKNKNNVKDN
UniProt P49761, sequence (whole entry, looked up): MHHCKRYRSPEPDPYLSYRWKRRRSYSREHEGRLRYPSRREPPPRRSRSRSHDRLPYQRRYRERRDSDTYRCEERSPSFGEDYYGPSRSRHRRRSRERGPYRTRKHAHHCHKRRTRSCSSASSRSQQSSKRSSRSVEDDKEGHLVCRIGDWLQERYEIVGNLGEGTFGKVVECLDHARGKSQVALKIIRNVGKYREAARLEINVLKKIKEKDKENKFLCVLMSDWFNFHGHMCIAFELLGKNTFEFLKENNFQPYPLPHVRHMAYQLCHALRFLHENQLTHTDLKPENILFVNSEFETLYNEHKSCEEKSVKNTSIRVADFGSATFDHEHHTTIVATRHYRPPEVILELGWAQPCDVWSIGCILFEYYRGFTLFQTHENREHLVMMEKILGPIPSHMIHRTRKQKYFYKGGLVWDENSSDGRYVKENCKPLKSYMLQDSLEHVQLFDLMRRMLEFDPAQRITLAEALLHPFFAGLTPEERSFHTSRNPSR
UniProt Q6P2M8, sequence (whole entry, looked up): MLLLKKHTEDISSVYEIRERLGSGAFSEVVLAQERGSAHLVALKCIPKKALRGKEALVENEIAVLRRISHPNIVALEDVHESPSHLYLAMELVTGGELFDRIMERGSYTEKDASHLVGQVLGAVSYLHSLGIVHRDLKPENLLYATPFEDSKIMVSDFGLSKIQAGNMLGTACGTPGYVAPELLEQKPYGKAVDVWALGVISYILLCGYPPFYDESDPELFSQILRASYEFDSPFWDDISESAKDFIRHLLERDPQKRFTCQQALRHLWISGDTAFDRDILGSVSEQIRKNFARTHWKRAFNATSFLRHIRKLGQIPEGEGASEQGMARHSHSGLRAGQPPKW
UniProt Q96Q40, sequence (whole entry, looked up): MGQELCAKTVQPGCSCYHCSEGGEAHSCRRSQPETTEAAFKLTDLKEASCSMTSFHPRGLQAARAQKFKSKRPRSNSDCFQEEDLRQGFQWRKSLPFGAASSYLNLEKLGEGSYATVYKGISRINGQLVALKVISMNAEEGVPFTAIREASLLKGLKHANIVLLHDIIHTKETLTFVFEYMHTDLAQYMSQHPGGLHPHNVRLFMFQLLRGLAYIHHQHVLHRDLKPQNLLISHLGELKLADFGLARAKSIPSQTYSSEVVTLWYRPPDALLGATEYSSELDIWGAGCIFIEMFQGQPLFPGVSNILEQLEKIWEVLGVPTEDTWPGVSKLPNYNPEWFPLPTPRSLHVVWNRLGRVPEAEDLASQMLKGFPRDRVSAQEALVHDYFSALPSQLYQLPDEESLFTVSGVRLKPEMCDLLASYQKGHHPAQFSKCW
UniProt Q99755, sequence (whole entry, looked up): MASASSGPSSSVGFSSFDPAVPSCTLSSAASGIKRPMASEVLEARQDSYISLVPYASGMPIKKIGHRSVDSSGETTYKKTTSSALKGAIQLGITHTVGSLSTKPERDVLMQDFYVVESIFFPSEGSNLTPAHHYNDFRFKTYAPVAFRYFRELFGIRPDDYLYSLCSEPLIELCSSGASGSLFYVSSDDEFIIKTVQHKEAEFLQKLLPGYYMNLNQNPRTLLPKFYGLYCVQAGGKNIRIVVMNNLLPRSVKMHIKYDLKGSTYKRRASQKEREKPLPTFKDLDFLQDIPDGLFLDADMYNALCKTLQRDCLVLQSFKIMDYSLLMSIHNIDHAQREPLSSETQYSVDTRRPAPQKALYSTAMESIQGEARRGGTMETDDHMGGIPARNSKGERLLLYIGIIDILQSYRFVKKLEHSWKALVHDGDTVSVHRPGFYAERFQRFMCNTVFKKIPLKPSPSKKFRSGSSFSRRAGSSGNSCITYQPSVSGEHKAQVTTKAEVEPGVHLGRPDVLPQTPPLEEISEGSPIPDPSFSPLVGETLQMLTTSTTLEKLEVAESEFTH
UniProt Q96L34, sequence (whole entry, looked up): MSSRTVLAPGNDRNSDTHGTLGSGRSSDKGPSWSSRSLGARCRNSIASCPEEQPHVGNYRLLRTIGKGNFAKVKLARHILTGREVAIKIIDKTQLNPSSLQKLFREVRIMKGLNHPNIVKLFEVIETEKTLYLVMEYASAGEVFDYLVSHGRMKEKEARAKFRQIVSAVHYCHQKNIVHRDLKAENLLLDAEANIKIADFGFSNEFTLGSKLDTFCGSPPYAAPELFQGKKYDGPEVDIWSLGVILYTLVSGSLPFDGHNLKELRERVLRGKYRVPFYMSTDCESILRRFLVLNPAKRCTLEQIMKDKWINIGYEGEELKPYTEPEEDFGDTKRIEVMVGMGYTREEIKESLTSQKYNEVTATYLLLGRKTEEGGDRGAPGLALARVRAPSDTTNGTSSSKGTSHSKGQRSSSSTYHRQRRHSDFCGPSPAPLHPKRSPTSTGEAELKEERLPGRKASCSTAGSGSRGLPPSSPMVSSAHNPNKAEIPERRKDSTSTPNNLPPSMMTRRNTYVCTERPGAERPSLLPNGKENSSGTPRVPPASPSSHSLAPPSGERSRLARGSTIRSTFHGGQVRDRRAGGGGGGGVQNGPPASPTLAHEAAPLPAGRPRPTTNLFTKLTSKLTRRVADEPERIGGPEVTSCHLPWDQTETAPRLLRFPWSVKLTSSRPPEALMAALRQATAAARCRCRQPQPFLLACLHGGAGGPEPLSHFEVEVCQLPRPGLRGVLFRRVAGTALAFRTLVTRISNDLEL
UniProt P32298, sequence (whole entry, looked up): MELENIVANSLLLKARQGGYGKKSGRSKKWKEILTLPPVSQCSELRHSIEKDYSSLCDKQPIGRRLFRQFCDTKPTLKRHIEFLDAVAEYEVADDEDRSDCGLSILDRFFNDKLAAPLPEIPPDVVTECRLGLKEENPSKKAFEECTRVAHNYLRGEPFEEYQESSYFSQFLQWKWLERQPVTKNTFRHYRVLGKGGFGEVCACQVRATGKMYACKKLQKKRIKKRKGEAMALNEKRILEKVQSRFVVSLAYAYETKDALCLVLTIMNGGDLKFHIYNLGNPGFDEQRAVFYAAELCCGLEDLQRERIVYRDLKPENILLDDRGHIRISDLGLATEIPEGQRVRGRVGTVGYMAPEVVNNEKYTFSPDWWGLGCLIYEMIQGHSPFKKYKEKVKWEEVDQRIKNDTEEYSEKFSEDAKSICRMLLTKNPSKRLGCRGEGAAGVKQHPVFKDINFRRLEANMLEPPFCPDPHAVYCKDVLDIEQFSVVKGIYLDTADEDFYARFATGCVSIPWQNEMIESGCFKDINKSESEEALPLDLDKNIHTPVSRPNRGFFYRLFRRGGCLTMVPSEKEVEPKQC
UniProt P42681, sequence (whole entry, looked up): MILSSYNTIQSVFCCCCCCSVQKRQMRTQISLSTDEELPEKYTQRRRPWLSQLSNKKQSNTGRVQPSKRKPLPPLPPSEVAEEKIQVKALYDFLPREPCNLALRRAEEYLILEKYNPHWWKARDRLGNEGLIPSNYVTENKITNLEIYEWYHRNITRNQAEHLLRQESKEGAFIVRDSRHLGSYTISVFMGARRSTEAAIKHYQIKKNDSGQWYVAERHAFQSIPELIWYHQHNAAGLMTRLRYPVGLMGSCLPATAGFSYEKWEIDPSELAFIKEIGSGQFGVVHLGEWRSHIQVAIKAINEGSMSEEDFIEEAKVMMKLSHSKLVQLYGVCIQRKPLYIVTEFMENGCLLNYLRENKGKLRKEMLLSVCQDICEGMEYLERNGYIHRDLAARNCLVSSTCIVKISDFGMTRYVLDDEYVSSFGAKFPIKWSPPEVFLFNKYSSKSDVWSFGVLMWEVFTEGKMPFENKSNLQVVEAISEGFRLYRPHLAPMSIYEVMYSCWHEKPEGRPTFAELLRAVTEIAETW
UniProt Q16539, sequence (whole entry, looked up): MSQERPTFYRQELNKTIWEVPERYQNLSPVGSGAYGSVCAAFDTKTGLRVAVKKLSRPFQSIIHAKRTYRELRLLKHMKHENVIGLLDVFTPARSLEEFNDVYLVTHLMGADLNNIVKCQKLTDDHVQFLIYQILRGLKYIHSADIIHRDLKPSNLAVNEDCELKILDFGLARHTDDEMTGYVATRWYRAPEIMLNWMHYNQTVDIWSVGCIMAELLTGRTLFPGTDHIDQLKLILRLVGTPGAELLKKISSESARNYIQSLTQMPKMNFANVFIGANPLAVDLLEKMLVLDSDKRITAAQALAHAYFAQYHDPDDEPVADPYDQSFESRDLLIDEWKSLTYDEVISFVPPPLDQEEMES

Sample 1
SMILES: c1ccc2c(-c3ccncc3)c[nH]c2c1
Effect on: enzyme activity
Mode: inhibitor
Tested at: 0.5 µM
Reference: control
Measurement: remaining activity
cGMP-dependent protein kinase 2 (PRKG2, Homo sapiens, UniProt Q13237): 38.3%
MAP/microtubule affinity-regulating kinase 4 (MARK4, Homo sapiens, UniProt Q96L34): 94.7%
G protein-coupled receptor kinase 4 (GRK4, Homo sapiens, UniProt P32298): 94.9%
Myosin-IIIb (MYO3B, Homo sapiens, UniProt Q8WXR4): 96.4%
Calcium/calmodulin-dependent protein kinase type IV (CAMK4, Homo sapiens, UniProt Q16566): 101%
Serine/threonine-protein kinase PAK 3 (PAK3, Homo sapiens, UniProt O75914): 102%
Dual specificity protein kinase CLK3 (CLK3, Homo sapiens, UniProt P49761): 92.6%
Mitogen-activated protein kinase 14 (MAPK14, Homo sapiens, UniProt Q16539): 104%
Calcium/calmodulin-dependent protein kinase type 1B (PNCK, Homo sapiens, UniProt Q6P2M8): 98.5%
RAC-beta serine/threonine-protein kinase (AKT2, Homo sapiens, UniProt P31751): 96.4%
Mitogen-activated protein kinase 11 (MAPK11, Homo sapiens, UniProt Q15759): 112%
Serine/threonine-protein kinase tousled-like 2 (TLK2, Homo sapiens, UniProt Q86UE8): 95.8%
Vascular endothelial growth factor receptor 2 (KDR, Homo sapiens, UniProt P35968): 94.2%
Tyrosine-protein kinase TXK (TXK, Homo sapiens, UniProt P42681): 104%
Ribosomal protein S6 kinase alpha-4 (RPS6KA4, Homo sapiens, UniProt O75676): 91%

Sample 2
Structure (SMILES): O=C(O)[C@@H]1[C@@H](Cn2nnc3ccccc3c2=O)CC[C@H]1C(=O)c1ccc(OCCC2CCOCC2)cc1
Effect on: cell-free assay
Technique: competition with immobilised ligand
Tested at: 1 µM
Measurement: remaining binding
Protein kinase C theta type (PRKCQ, Homo sapiens, UniProt Q04759): 85%
Casein kinase I isoform alpha-like (CSNK1A1L, Homo sapiens, UniProt Q8N752): 100%
Mitogen-activated protein kinase 7 (MAPK7, Homo sapiens, UniProt Q13164): 100%
Tyrosine-protein kinase ABL1, non-phosphorylated (ABL1, Homo sapiens, UniProt P00519): 95%
Receptor-interacting serine/threonine-protein kinase 4 (RIPK4, Homo sapiens, UniProt P57078): 81%
Phosphatidylinositol 4-phosphate 5-kinase type-1 alpha (PIP5K1A, Homo sapiens, UniProt Q99755): 94%
Cyclin-dependent kinase 15 (CDK15, Homo sapiens, UniProt Q96Q40): 100%
Serine/threonine-protein kinase 38 (STK38, Homo sapiens, UniProt Q15208): 95%
Interleukin-1 receptor-associated kinase 3 (IRAK3, Homo sapiens, UniProt Q9Y616): 100%
Epidermal growth factor receptor (EGFR, Homo sapiens, UniProt P00533, del747-750/T751S): 58%

Sample 3
Target: Calcium/calmodulin-dependent protein kinase type II subunit alpha (CAMK2A, Homo sapiens, UniProt Q9UQM7)
UniProt Q9UQM7, sequence (whole entry, looked up): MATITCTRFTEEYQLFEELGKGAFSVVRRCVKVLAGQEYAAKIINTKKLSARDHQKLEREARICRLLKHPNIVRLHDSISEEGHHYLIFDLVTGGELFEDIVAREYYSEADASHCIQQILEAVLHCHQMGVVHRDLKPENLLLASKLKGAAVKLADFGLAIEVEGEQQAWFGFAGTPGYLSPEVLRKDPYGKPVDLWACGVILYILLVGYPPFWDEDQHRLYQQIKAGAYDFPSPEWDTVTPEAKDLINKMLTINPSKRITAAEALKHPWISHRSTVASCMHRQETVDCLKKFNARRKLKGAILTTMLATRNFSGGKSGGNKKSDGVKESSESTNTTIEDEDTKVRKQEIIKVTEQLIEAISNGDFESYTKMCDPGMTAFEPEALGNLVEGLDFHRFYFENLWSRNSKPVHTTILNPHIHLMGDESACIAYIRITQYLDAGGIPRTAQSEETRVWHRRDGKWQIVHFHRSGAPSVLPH
Effect on: enzyme activity
Mode: inhibitor
Tested at: 10 µM
Measurement: inhibition
N[C@@H](CCSC[C@H](N)C(=O)O)C(=O)O: -7%
C[C@@H]1O[C@@H](O[C@H]2[C@H](Oc3cc(O)c4c(c3)O[C@H](c3ccc(O)c(O)c3)CC4=O)O[C@H](CO)[C@@H](O)[C@@H]2O)[C@H](O)[C@H](O)[C@H]1O: -16%
COc1c2c(cc3c1-c1c(cc4c(c1OC)OCO4)C[C@H](C)[C@H](C)C3)OCO2: 6%
NC(=O)c1ccc[n+]([C@@H]2O[C@H](COP(=O)([O-])OP(=O)(O)OC[C@H]3O[C@@H](n4cnc5c(N)ncnc54)[C@H](O)[C@@H]3O)[C@@H](O)[C@H]2O)c1: 2%
COc1cccc(OC)c1C(=O)N[C@@H]1C(=O)N2[C@@H]1SC(C)(C)[C@@H]2C(=O)O: -1%
O=Cc1ccccc1O[C@@H]1O[C@H](CO)[C@@H](O)[C@H](O)[C@H]1O: -28%
Cc1nc2n(c(=O)c1CCN1CCC(c3noc4cc(F)ccc34)CC1)CCCC2: -4%

Sample 4
Structure (SMILES): CC(C)n1cnc(-c2ccc(F)cc2)c1-c1ncc(C(=O)Nc2ccc(N3CCN(C)CC3)cc2)[nH]1
Technique: phase 2a clinical trial
Species: patients with idiopathic pulmonary fibrosis
Measurement: patients with treatment-emergent adverse events
item: C-reactive protein increased; 30 mg once daily, Grade 2: 0%
item: idiopathic pulmonary fibrosis; 30 mg once daily, Grade 4: 0%
item: lumbar vertebral fracture; 60 mg once daily, Grade 2, maximum intensity: 0%
item: left ventricular dysfunction; 30 mg once daily, Grade 2: 0%
item: metabolism and nutrition disorders (SOC); 30 mg once daily, Grade 3: 0%
item: left ventricular dysfunction; dose not given, Grade 3, all drug arms: 0%
item: interstitial lung disease; 30 mg once daily, Grade 4: 0%
item: interstitial lung disease; 60 mg once daily, Grade 4: 0%

A few entries again (sample 1):
Mitogen-activated protein kinase 14 (MAPK14, Homo sapiens, UniProt Q16539): 104%
Myosin-IIIb (MYO3B, Homo sapiens, UniProt Q8WXR4): 96.4%
G protein-coupled receptor kinase 4 (GRK4, Homo sapiens, UniProt P32298): 94.9%
Calcium/calmodulin-dependent protein kinase type 1B (PNCK, Homo sapiens, UniProt Q6P2M8): 98.5%
Calcium/calmodulin-dependent protein kinase type IV (CAMK4, Homo sapiens, UniProt Q16566): 101%
